Measured values gathered from unrelated publications.
Every numbered part comes from another study and shows a few of its results, in no order. Several values in a cell are separate wells, animals, samples, runs or records.
Sequence of UniProt P08588 (whole entry, looked up): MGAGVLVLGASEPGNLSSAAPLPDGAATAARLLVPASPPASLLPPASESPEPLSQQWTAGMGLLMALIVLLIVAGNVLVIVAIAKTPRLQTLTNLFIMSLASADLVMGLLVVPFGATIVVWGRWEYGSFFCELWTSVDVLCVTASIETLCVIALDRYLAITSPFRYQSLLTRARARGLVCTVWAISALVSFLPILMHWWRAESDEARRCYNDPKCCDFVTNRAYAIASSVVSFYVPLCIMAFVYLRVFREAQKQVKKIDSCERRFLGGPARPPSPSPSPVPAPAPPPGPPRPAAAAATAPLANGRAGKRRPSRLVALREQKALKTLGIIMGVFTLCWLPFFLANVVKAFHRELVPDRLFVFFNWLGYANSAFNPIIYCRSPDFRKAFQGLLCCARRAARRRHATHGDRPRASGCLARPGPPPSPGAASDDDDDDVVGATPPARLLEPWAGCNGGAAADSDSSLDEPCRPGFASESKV
Sequence of UniProt P35348 (whole entry, looked up): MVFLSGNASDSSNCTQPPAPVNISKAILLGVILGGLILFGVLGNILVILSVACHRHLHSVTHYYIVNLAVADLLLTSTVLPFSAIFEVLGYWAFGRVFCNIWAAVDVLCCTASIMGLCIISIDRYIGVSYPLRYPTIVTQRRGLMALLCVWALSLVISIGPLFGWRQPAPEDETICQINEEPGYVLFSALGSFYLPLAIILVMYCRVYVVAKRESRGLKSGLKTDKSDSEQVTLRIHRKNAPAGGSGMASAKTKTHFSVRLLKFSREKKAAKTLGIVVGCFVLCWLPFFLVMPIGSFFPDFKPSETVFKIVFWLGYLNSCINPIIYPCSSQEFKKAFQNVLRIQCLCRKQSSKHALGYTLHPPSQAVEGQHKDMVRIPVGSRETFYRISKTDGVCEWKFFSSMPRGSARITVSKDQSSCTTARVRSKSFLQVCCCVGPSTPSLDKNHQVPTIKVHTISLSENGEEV
Sequence of UniProt P08173 (whole entry, looked up): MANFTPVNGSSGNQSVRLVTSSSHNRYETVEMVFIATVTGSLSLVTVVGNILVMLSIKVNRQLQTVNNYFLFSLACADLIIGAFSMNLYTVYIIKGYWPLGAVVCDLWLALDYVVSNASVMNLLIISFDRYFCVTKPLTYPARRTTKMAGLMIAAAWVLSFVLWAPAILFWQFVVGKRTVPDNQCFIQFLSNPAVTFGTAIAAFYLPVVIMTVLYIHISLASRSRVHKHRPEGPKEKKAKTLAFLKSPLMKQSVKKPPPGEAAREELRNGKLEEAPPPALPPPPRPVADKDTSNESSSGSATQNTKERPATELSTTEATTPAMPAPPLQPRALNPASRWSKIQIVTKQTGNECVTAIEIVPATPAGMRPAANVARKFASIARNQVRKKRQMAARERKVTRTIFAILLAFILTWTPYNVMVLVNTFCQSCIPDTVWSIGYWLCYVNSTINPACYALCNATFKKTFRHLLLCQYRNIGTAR
Sequence of UniProt P47898 (whole entry, looked up): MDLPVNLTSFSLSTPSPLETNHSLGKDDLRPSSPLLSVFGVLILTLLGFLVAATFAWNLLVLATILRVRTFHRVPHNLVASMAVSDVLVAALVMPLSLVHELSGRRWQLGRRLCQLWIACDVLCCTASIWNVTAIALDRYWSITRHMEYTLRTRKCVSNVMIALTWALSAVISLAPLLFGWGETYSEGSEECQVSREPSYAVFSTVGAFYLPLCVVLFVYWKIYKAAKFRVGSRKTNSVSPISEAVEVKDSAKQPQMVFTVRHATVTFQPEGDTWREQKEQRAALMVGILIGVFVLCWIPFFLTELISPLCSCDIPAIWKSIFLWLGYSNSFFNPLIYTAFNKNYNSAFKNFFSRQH
Sequence of UniProt P18089 (whole entry, looked up): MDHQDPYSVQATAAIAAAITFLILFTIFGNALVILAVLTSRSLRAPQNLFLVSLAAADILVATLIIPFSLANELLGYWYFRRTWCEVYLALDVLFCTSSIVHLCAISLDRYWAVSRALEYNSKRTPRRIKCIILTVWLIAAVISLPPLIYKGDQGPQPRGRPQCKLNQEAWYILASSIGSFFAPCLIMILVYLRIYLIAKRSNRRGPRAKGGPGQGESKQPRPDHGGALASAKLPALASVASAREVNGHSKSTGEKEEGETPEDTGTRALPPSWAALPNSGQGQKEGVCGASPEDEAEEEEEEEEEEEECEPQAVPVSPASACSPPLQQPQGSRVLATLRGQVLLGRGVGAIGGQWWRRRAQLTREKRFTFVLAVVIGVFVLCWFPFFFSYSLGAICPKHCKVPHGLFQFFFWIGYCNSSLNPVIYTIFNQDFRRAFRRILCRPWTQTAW
Sequence of UniProt P25911 (whole entry, looked up): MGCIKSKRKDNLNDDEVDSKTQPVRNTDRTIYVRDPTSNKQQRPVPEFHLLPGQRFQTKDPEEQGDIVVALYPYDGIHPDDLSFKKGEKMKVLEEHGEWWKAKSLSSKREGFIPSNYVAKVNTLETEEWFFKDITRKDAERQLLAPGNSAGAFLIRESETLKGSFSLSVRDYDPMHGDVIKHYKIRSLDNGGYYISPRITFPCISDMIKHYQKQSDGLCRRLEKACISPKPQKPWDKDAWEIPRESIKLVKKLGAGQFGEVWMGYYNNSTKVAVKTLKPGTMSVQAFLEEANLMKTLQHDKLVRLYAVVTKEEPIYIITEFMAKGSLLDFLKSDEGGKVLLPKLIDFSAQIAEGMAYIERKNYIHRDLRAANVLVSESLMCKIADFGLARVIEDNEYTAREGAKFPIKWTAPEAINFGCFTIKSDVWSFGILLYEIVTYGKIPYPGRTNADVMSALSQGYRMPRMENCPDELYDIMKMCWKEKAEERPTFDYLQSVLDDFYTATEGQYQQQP
Sequence of UniProt P13945 (whole entry, looked up): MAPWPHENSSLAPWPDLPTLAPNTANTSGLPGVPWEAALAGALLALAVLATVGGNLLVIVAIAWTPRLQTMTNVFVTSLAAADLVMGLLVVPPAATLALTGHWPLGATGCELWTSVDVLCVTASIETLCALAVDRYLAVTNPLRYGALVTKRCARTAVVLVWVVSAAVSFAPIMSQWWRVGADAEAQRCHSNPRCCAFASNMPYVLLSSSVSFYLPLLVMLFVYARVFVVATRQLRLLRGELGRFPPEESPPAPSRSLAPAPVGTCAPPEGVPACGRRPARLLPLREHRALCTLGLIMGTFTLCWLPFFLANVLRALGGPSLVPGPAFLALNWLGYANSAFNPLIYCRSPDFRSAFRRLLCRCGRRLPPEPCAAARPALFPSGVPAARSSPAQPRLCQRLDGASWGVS
Sequence of UniProt P28221 (whole entry, looked up): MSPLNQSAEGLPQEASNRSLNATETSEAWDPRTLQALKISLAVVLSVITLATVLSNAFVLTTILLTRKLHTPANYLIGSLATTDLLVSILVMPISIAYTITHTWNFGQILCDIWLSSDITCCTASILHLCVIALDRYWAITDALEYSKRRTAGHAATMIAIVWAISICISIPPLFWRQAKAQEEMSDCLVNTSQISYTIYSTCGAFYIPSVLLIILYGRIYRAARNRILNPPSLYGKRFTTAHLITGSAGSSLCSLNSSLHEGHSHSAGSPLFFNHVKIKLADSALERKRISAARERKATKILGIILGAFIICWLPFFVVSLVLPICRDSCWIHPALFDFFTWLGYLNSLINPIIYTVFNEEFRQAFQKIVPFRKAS
Sequence of UniProt P25021 (whole entry, looked up): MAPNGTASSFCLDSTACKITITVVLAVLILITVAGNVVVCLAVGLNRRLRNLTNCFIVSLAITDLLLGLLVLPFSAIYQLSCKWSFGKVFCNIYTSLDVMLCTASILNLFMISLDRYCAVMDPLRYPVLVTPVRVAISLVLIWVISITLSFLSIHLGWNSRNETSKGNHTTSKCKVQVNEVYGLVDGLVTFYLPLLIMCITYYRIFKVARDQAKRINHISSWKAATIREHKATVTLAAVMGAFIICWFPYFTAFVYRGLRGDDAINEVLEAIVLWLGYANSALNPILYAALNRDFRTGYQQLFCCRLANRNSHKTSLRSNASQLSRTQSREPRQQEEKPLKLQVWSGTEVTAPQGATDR
Sequence of UniProt P35462 (whole entry, looked up): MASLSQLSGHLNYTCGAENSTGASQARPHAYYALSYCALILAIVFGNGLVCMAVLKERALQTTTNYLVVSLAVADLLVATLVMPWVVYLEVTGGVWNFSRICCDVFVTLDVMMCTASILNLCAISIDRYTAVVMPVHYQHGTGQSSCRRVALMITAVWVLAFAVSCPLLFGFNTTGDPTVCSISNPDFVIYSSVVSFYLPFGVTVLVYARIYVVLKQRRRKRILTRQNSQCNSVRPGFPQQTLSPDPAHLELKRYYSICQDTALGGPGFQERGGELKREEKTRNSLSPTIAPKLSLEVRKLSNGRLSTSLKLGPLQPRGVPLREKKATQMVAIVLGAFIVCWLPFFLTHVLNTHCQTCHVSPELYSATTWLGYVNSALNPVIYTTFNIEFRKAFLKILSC

Set 1 — cell line: mouse MPNST tumor cells; technique: high-content immunofluorescence imaging; measured: nuclear SOX9; concentration: 10 µM; time: 12 h; setting: mean of 2 replicates; reference: DMSO control; reading: higher = more nuclear SOX9
`COC(=O)C1=C(C)NC(C)=C(C(=O)OC(C)C)C1c1cccc2nonc12` (centres unmarked): “nuclear SOX9 intensity” 105 % of DMSO and 100 % of DMSO.
For `CCCCC(O)c1ccccc1` (centres unmarked), “nuclear SOX9 intensity” read 98.5 % of DMSO.
`c1ccc(-c2oc3ncnc(NC[C@@H]4CCCO4)c3c2-c2ccccc2)cc1` — result for “nuclear SOX9 intensity”: 157 % of DMSO.
Under “nuclear SOX9 intensity”, `N=C(N)NC(=O)c1nc(Cl)c(N)nc1N` is recorded as 95.3 % of DMSO and 110 % of DMSO.
`CCS(=O)(=O)N(C)[C@H]1c2cc(C#N)ccc2OC(C)(C)[C@@H]1O` — result for “nuclear SOX9 intensity”: 100 % of DMSO.
`CCc1cc(C(C)=O)c(O)cc1OCCCCCC(C)(C)c1nn[nH]n1`: “nuclear SOX9 intensity” 97.7 % of DMSO.
Under “nuclear SOX9 intensity”, `CC1(C)CCC(CN2CCN(c3ccc(C(=O)NS(=O)(=O)c4ccc(NCC5CCOCC5)c([N+](=O)[O-])c4)c(Oc4cnc5[nH]ccc5c4)c3)CC2)=C(c2ccc(Cl)cc2)C1` is recorded as 132 % of DMSO.
Under “nuclear SOX9 intensity”, `CNCCN1CCC(c2cc(CN(C)C(=O)c3cccc(Oc4ccccc4)c3)ccn2)CC1` is recorded as 178 % of DMSO and 193 % of DMSO.
`C[C@H](NC(=O)CCc1ccc(F)c(F)c1)c1cncc(N2CCN(c3ccccn3)CC2)n1` — result for “nuclear SOX9 intensity”: 99.8 % of DMSO.
For `COc1cc(C(=O)NC2CCCNC2)cc(OC)c1OC` (centres unmarked), “nuclear SOX9 intensity” read 94.7 % of DMSO.

Set 2 — observed: ligand displacement; concentration: 10 µM
Structure (SMILES): O=C(O)[C@H]1[C@H](Cn2nnc3ccccc3c2=O)CC[C@@H]1C(=O)c1ccc(OCCC2CCOCC2)cc1
It gave -5.24% for inhibition (CHRM4 (Homo sapiens, UniProt P08173)).
For ADRA2B (Homo sapiens, UniProt P18089): inhibition read 3.34%.
For ADRB3 (Homo sapiens, UniProt P13945): inhibition read -22.9%.
DRD3 (Homo sapiens, UniProt P35462) — inhibition: 7.27%.
It gave 1.16% for inhibition (DRD1 (Homo sapiens, UniProt P21728)).
The inhibition was -10.9% (ADRA1A (Homo sapiens, UniProt P35348)).
It gave 6.91% for inhibition (HTR5A (Homo sapiens, UniProt P47898)).
It gave -2.95% for inhibition (HRH3 (Homo sapiens, UniProt Q9Y5N1)).
For ADRB1 (Homo sapiens, UniProt P08588): inhibition read -17.4%.
HTR1D (Homo sapiens, UniProt P28221); radioligand — inhibition: 4.82%.
The inhibition was 12.6% (HRH2 (Homo sapiens, UniProt P25021)).

Set 3 — observed: enzyme activity; mode: inhibitor; concentration: 10 µM
Target: Calcium/calmodulin-dependent protein kinase type II subunit alpha (CAMK2A, Homo sapiens, UniProt Q9UQM7)
Sequence of UniProt Q9UQM7 (whole entry, looked up): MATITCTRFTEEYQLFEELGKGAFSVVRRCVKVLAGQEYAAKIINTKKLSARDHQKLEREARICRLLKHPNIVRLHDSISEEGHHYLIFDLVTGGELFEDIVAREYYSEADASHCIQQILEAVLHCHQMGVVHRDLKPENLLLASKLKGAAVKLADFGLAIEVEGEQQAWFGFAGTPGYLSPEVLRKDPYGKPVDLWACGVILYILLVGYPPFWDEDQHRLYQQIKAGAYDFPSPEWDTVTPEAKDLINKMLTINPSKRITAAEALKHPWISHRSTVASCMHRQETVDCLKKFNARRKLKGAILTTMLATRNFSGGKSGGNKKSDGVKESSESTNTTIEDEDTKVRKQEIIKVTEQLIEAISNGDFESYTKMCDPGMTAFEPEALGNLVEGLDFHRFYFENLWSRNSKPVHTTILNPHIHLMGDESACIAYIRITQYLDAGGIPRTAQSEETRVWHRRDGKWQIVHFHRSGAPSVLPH
The inhibition of `CCOC(=O)C(=O)C(C)C(=O)OCC` (centres unmarked) is reported as -14%.
The inhibition of `NC(N)=Nc1nc(CSCC/C(N)=N/S(N)(=O)=O)cs1` is reported as 3%.
The inhibition of `C[C@]12CCC(=O)C=C1CC[C@@H]1[C@@H]2[C@@H](O)C[C@@]2(C)[C@H]1CC[C@]2(O)C(=O)COC(=O)CCC1CCCC1` is reported as 8%.
With `O=C(CCBr)N1CCN(C(=O)CCBr)CC1` the inhibition was 5%.
`OC[C@H]1O[C@H](OC[C@H]2OC(O)[C@H](O)[C@@H](O)[C@@H]2O)[C@H](O)[C@@H](O)[C@@H]1O` (some centres unmarked) gave an inhibition of -42%.
The inhibition of `C=C1C[C@@]23CC[C@H]4[C@@](C)(CCC[C@@]4(C)C(=O)O)[C@@H]2CC[C@]1(O)C3` is reported as 11%.
With `COc1ccc(C2CC(=O)c3c(O)cc(O)cc3O2)cc1O` (racemic) the inhibition was -22%.
`CC/C=C\CCO` has an inhibition of 3%.
`NCC(O)CCC(N)C(=O)O` (racemic) has an inhibition of 8%.

Set 4
SMILES: COc1cc(C(=O)N2CCC(N3CCN(C)CC3)CC2)ccc1Nc1ncc2c(n1)N(C)c1ccccc1C(=O)N2C
For NDR2 (mouse); probe labelling, KiNativ ATP probe; mouse brain lysate; 1 µM, LYS1 labelled site: inhibition read 8.2%.
It gave -10.4% for inhibition (Lyn (Mus musculus, UniProt P25911); KiNativ profiling; mouse brain lysate; 0.1 µM, LYS1 site, together with: ATP acyl phosphate probe).
It gave 5.7% for inhibition (WNK1/WNK2 (mouse); probe labelling, inhibitor, KiNativ ActivX ATP probe; mouse brain lysate; 1 µM, ATP loop peptide GSFkTVYK).
The inhibition was -1% (mouse CaMK2α/β/δ/γ; probe labelling, KiNativ ADP probe; mouse brain lysate; 0.1 µM, LYS2 site DLkPENLLLASK).
The inhibition was -6.6% (FER (mouse); probe labelling, KiNativ ADP probe; mouse brain lysate; 0.1 µM, LYS1 labelled site).
The inhibition was -14.2% (HGK (MAP4K4) human; KiNativ profiling; human PBMC lysate; concentration not given, Lys1 site, together with: ATP probe 1 µM).
For human PBMC; probe labeling, inhibitor, KiNativ profiling; cell lysate; concentration not given, domain 1, LYS1 site, together with: ATP acyl-phosphate probe 1 µM: inhibition read -4%.
The inhibition was 20.3% (SLK human; KiNativ profiling; human PBMC; 1 µM, LYS2 site, together with: ATP acyl phosphate probe).
For mouse IKKε and TBK1; probe labelling, KiNativ ADP probe; mouse brain lysate; 0.1 µM, LYS2 site DIkPGNIMR: inhibition read 2.2%.
It gave -8% for inhibition (p38alpha human; KiNativ profiling; human PBMC lysate; concentration not given, ATP probe, other site).
For ILK (human); probe labelling, KiNativ ADP probe; human PBMC lysate; concentration not given, LYS1 labelled site: inhibition read 10.6%.

Repeated from above (set 3):
The inhibition of `C[C@]12CCC(=O)C=C1CC[C@@H]1[C@@H]2[C@@H](O)C[C@@]2(C)[C@H]1CC[C@]2(O)C(=O)COC(=O)CCC1CCCC1` is reported as 8%.
With `O=C(CCBr)N1CCN(C(=O)CCBr)CC1` the inhibition was 5%.
`OC[C@H]1O[C@H](OC[C@H]2OC(O)[C@H](O)[C@@H](O)[C@@H]2O)[C@H](O)[C@@H](O)[C@@H]1O` (some centres unmarked) gave an inhibition of -42%.
The inhibition of `C=C1C[C@@]23CC[C@H]4[C@@](C)(CCC[C@@]4(C)C(=O)O)[C@@H]2CC[C@]1(O)C3` is reported as 11%.
With `COc1ccc(C2CC(=O)c3c(O)cc(O)cc3O2)cc1O` (racemic) the inhibition was -22%.
`CC/C=C\CCO` has an inhibition of 3%.
`NCC(O)CCC(N)C(=O)O` (racemic) has an inhibition of 8%.
